Experimental data pooled from the literature.
Each line is one published result; not all experiments were run side by side. “And” joins repeats or separate records; there may be more than shown. ± marks the error that the study gave. In brackets after ≈: the same amount, converted by molar mass.
cyp121: Mycocyclosin synthase (cyp121, Mycobacterium tuberculosis, UniProt P9WPP7)

Chains of the proteins cited; added tags and fusions are not shown.
UniProt P9WPP7, whole entry: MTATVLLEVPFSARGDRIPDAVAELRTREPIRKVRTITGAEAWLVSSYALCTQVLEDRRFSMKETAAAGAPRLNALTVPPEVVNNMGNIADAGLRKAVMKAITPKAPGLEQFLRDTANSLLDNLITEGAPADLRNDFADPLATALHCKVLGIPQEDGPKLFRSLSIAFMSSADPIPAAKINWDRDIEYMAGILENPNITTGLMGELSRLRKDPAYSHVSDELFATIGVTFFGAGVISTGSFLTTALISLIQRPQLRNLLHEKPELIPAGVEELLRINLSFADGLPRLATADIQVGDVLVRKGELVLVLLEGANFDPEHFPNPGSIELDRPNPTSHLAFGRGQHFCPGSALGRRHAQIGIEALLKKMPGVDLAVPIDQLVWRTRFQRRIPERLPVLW
UniProt P08912, whole entry: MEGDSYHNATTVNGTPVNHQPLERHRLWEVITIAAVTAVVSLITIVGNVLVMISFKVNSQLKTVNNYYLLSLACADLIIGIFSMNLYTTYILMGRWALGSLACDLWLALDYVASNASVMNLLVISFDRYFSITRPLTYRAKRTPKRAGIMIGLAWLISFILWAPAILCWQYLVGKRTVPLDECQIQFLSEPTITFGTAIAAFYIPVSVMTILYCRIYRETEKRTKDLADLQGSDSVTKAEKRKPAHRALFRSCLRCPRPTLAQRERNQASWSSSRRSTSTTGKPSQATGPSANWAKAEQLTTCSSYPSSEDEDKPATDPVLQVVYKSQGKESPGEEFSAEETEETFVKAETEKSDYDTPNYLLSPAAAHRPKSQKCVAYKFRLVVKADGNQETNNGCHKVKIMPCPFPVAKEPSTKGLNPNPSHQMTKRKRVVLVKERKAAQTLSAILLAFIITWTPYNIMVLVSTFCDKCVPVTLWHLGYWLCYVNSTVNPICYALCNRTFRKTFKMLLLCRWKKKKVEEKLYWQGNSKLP

Compound | target or system | test | system | conditions | scale | measurement | result
CCc1nc(N)nc(N)c1C#C[C@@H](C)c1cc(OC)cc(-c2ccncc2)c1 | Staphylococcus aureus | broth microdilution | ATCC 43300 MRSA | 18 h, 37 °C |  | MIC | 0.0391 µg/mL (≈ 0.105 µM)
O=C(CCN(CCC(=O)N[C@@H](Cc1c[nH]c2ccccc12)C(=O)O)C(=O)CCN(CCC(=O)N(CCC(=O)N[C@@H](Cc1c[nH]c2ccccc12)C(=O)O)CCC(=O)N[C@@H](Cc1c[nH]c2ccccc12)C(=O)O)C(=O)CCOCC(COCCC(=O)N(CCC(=O)N(CCC(=O)N[C@@H](Cc1c[nH]c2ccccc12)C(=O)O)CCC(=O)N[C@@H](Cc1c[nH]c2ccccc12)C(=O)O)CCC(=O)N(CCC(=O)N[C@@H](Cc1c[nH]c2ccccc12)C(=O)O)CCC(=O)N[C@@H](Cc1c[nH]c2ccccc12)C(=O)O)(COCCC(=O)N(CCC(=O)N(CCC(=O)N[C@@H](Cc1c[nH]c2ccccc12)C(=O)O)CCC(=O)N[C@@H](Cc1c[nH]c2ccccc12)C(=O)O)CCC(=O)N(CCC(=O)N[C@@H](Cc1c[nH]c2ccccc12)C(=O)O)CCC(=O)N[C@@H](Cc1c[nH]c2ccccc12)C(=O)O)COCCC(=O)N(CCC(=O)N(CCC(=O)N[C@@H](Cc1c[nH]c2ccccc12)C(=O)O)CCC(=O)N[C@@H](Cc1c[nH]c2ccccc12)C(=O)O)CCC(=O)N(CCC(=O)N[C@@H](Cc1c[nH]c2ccccc12)C(=O)O)CCC(=O)N[C@@H](Cc1c[nH]c2ccccc12)C(=O)O)N[C@@H](Cc1c[nH]c2ccccc12)C(=O)O | Enterovirus A71 | viral replication | RD, B2 clinical isolate |  |  | EC50 | 1.7 ± 0.2 nM
NC[C@@H](NC[C@@H]1CCCN1C[C@@H](CO)NC[C@@H](NCCC12CC3CC(CC(C3)C1)C2)c1ccccc1)c1ccccc1 | Acinetobacter baumannii | bacterial growth |  | 16 µM, fold shift of IC90, with: amikacin |  | potentiation of amikacin | 8.7 fold
COc1cc(-c2ccccc2C)cc(C(C)C#Cc2c(C)nc(N)nc2N)c1 (racemic) | Candida glabrata | Alamar Blue |  |  |  | MIC | 23 µg/mL (≈ 61.7 µM)
CC(C)(C)c1ccc(C(=O)Nc2cc(Cl)c(Cl)cc2C(=O)O)cc1 | Trypanosoma brucei |  | bloodstream form, 90-13 | 10 µM |  | growth inhibition | 35 ± 11%
CCc1nc(N)nc(N)c1C#CCc1cc(-c2ccncc2)ccc1OC | Klebsiella pneumoniae |  | ATCC 10031 | with: thymidine 20 µg/mL |  | MIC | > 20 µg/mL
O=c1[nH]c2sc3c(c2c(=O)n1O)CCC3 | HIV-1 | viral replication, MAGI | P4/R5 |  |  | EC50 | 22000 ± 4000 nM
COc1ccc(-c2csc(Cn3ccnc3)c2)cc1OC | cyp121 | binding |  |  |  | Kd | 62.7 ± 12.4 µM
CN1CC[C@]23c4c5ccc(O)c4O[C@H]2c2ncc(-c4ccc(Cl)cc4)cc2C[C@@]3(OCCCc2ccccc2)[C@H]1C5 |  | antinociception | CD-1 mouse, HIV neuropathy | sc, day 1 |  | A50 | 2.3 mg/kg
C=CC(=O)Nc1cc(-n2c(=O)ccc3cnc4ccc(-c5cn[nH]c5)cc4c32)ccc1C | Ramos | western blot, measured: BTK Tyr551 phosphorylation |  | concentration not given, 4 h |  | BTK phosphorylation | no effect
O=C(O)c1ccc(-c2cccc(C(=O)O)c2)cc1 | Escherichia coli | bacterial growth, broth microdilution | expressing OXA-48 | 4 µg/mL, with: ampicillin | MIC of ampicillin | MIC of ampicillin | 512 µg/mL
O=C(NC1CCN(c2ncnc3[nH]cnc23)CC1)c1cccc(NS(=O)(=O)c2ccc(Cl)cc2)c1 | HCoV-OC43 | viral infection |  | concentration not given |  | inhibition | 19.9%
CO[C@H]1[C@H](O[C@H]([C@H]2O[C@@H](n3ccc(=O)[nH]c3=O)[C@H](O)[C@@H]2O)[C@H](NCCCNC(=O)[C@@H](NC(=O)[C@@H](NC(=O)N[C@H](C(=O)O)C(C)C)[C@@H]2CCNC(=N)N2)[C@@H](OC(=O)CCCCCCCCCCCCNC(=N)N)C(C)C)C(N)=O)O[C@H](CN)[C@H]1O | Mycobacterium spp. |  |  |  |  | MIC | 0.08 µg/mL (≈ 0.0668 µM)
NC[C@@H](NC[C@@H]1CCCN1C[C@@H](CO)NC[C@@H](NCCc1ccc(-c2ccccc2)cc1)c1ccccc1)c1ccccc1 | Acinetobacter baumannii | bacterial growth |  | compound alone |  | IC50 | 12 µM and 11.7 µM
O=c1c2ccc(Oc3ccc(OC(F)(F)F)cc3)cc2[nH]c2cc(Cl)cc(F)c12 | Toxoplasma gondii | parasite growth, beta-galactosidase reporter | HFF, RH |  |  | EC50 | 0.03 nM
COc1cc(-c2ccccc2)cc(C(C)C#Cc2c(C)nc(N)nc2N)c1 (racemic) | Candida glabrata | Alamar Blue |  |  |  | MIC | 11.1 µg/mL (≈ 31 µM)
NC[C@@H](NC[C@@H]1CCCN1C[C@@H](CO)NC[C@@H](NCCC1CC2CCC1C2)c1ccccc1)c1ccccc1 (some centres unmarked) | Klebsiella pneumoniae | bacterial growth |  | 24 µM, fold shift of IC90, with: amikacin |  | potentiation of amikacin | 3.9 fold
Nc1cc(S(=O)(=O)O)cc2cc(S(=O)(=O)O)cc(O)c12 | Escherichia coli | bacterial growth, broth microdilution | expressing OXA-48 | 256 µg/mL, with: ampicillin | MIC of ampicillin | MIC of ampicillin | 128 µg/mL

Compound | target or system | test | system | conditions | scale | measurement | result
Cc1ccccc1S(=O)(=O)Nc1cccc(C(=O)NC2CCN(c3ncnc4[nH]cnc34)CC2)c1 | HCoV-OC43 | viral infection |  | concentration not given |  | inhibition | 62.4%
CC(CCN[C@H](CN[C@H](CO)CN1CCC[C@H]1CN[C@H](CN)c1ccccc1)c1ccccc1)c1ccccc1 (some centres unmarked) | Klebsiella pneumoniae | bacterial growth |  | 16 µM, fold shift of IC90, with: amikacin |  | potentiation of amikacin | 1.3 fold
Fc1ccc(-c2csc(Cn3ccnc3)c2)cc1 | cyp121 | binding |  |  |  | Kd | 18.9 ± 3.1 µM
O=C(NC1CCN(c2ncnc3[nH]cnc23)CC1)c1cccc(NS(=O)(=O)c2ccc([N+](=O)[O-])cc2)c1 | HCoV-OC43 | viral infection |  | concentration not given |  | inhibition | 24.8%
C[C@H](CS)C(=O)N[C@H](Cc1c[nH]c2ccccc12)C(=O)O | Enterobacter aerogenes |  | IMP-1 producing | 50 µM, with: meropenem |  | MIC of meropenem | 0.5 µg/mL
O=S(=O)(O)c1ccc2cc(S(=O)(=O)O)ccc2c1 | Escherichia coli | bacterial growth, broth microdilution | expressing OXA-48 | 64 µg/mL, with: ampicillin | MIC of ampicillin | MIC of ampicillin | 128 µg/mL
Cc1ccc(S(=O)(=O)Nc2cccc(C(=O)NC3CCN(c4ncnc5[nH]cnc45)CC3)c2)cc1 | HCoV-OC43 | viral infection |  | concentration not given |  | inhibition | 68.3%
O=c1c2ccc(Oc3ccc(OC(F)(F)F)cc3)cc2[nH]c2cc(F)cc(Cl)c12 | Toxoplasma gondii | parasite growth | T222P mutant |  | reference: T222P over RH strain | EC50 ratio | 0.7
O=S(=O)(O)c1ccc2c(c1)Cc1cc(S(=O)(=O)O)ccc1-2 | Escherichia coli | bacterial growth, broth microdilution | expressing OXA-48 | 32 µg/mL, with: ampicillin | MIC of ampicillin | MIC of ampicillin | 256 µg/mL
O=c1c2ccc(Oc3ccc(OC(F)(F)F)cc3)cc2[nH]c2cc(F)cc(F)c12 | Toxoplasma gondii | parasite growth | RH cytochrome b T222P |  |  | EC50 | 0.08 nM
O=S(=O)(O)c1ccc(-c2ccc(S(=O)(=O)O)cc2)cc1 | Escherichia coli | bacterial growth, broth microdilution | expressing OXA-48 | 128 µg/mL, with: ampicillin | MIC of ampicillin | MIC of ampicillin | 64 µg/mL
COCCCNc1cc(C(=O)NC2CC3CCC(C2)N3c2ccc(C(=O)NCc3ccccc3)cn2)ccc1C(N)=O (centres unmarked) | Plasmodium falciparum | SYBR Green I | 3D7 | 72 h, asexual blood stage |  | EC50 | 730 ± 150 nM
NC[C@@H](NC[C@@H]1CCCN1C[C@@H](CO)NC[C@@H](NCCc1ccc(Cl)c(Cl)c1)c1ccccc1)c1ccccc1 | Klebsiella pneumoniae | bacterial growth |  | 16 µM, fold shift of IC90, with: amikacin |  | potentiation of amikacin | 1.1 fold
CC(C)=C1CC[C@]23CO[C@H](C2)[C@@](O)(C(=O)O)CC[C@@H]13 | Arabidopsis thaliana |  | Col-0, seedlings | 50 µg/mL, with: BCAA |  | hypocotyl length | 1.37 cm
Cc1ccc(S(=O)(=O)Nc2cccc(C(=O)NC3CCN(c4ncnc5[nH]cnc45)CC3)c2)cc1Cl | HCoV-OC43 | viral infection |  | concentration not given |  | inhibition | 62.4%
CC(C)C[C@@H](NC(=O)[C@H](NC(=O)[C@H]1CCCN1)[C@H](C)O)C(=O)N[C@H](Cc1c[nH]cn1)C(=O)N[C@@H](C(=O)N[C@H](Cc1c[nH]cn1)C(=O)N[C@H](CC(N)=O)C(=O)N[C@H](CCCNC(=N)N)C(=O)N[C@H](CCCNC(=N)N)C(=O)N[C@H](CCCNC(=N)N)C(=O)N[C@H](CCCNC(=N)N)C(=O)N[C@H](CCCNC(=N)N)C(N)=O)[C@H](C)O |  |  | human, plasma | oral, 1 160 mg daily, day 14, mean |  | AUC(0-24h) | 62.7 ng·h/mL
COc1ccc(CN[C@@H]2CO[C@H](C(c3ccccc3)c3ccccc3)C[C@H]2O)cc1 | CHRM5 (Homo sapiens, UniProt P08912) | radioligand binding |  | 10 µM, with: [3H]QNB |  | inhibition | 16%

Some of these lines once more:
Compound | target or system | test | system | conditions | scale | measurement | result
Fc1ccc(-c2csc(Cn3ccnc3)c2)cc1 | cyp121 | binding |  |  |  | Kd | 18.9 ± 3.1 µM
O=C(NC1CCN(c2ncnc3[nH]cnc23)CC1)c1cccc(NS(=O)(=O)c2ccc([N+](=O)[O-])cc2)c1 | HCoV-OC43 | viral infection |  | concentration not given |  | inhibition | 24.8%
C[C@H](CS)C(=O)N[C@H](Cc1c[nH]c2ccccc12)C(=O)O | Enterobacter aerogenes |  | IMP-1 producing | 50 µM, with: meropenem |  | MIC of meropenem | 0.5 µg/mL
O=S(=O)(O)c1ccc2cc(S(=O)(=O)O)ccc2c1 | Escherichia coli | bacterial growth, broth microdilution | expressing OXA-48 | 64 µg/mL, with: ampicillin | MIC of ampicillin | MIC of ampicillin | 128 µg/mL
